Measurements pooled from the literature.
Each line is one published result; not all experiments were run side by side. “And” joins repeats or separate records; there may be more than shown. ± gives the spread as reported.

SMILES	test	system	setting	scale	endpoint	value
CC[C@H](C)[C@@H]1NC(=O)[C@@H]2CCCN2C(=O)[C@H](CC(C)C)NC(=O)[C@H](CC(C)C)NC(=O)CNC(=O)[C@@H](NC(=O)[C@@H](NC(=O)[C@H](CC(=O)O)NC(=O)CNC(=O)[C@@H](NC(=O)[C@H](C)NC(=O)CNC(=O)[C@H](CCCCN)NC(=O)[C@H](CC(C)C)NC(=O)[C@H](CC(C)C)NC(=O)[C@H](CCCCN)NC(=O)CNC(=O)[C@@H](NC(=O)[C@@H](N)CC(C)C)C(C)C)C(C)C)C(C)C)CSSC[C@@H](C(=O)O)NC1=O	RNA-seq, measured: Ubd mRNA	mouse traumatic brain injury, frontal cortex and hippocampus	dose not given	relative to: TBI plus compound vs TBI	log2 fold change	-3.73
C[C@]1(CO)Cc2ncn(-c3ccc(C#N)c(Cl)c3)c2C(=O)O1	–	Chinese subjects	20 mg single dose	–	urinary potassium excretion 0-24 h	33.8 mmol
Cc1cn(-c2cc(NC(=O)c3ccc(C)c(Nc4nccc(-c5cccnc5)n4)c3)cc(C(F)(F)F)c2)cn1	–	human patients	dose not given, 12 to 6 months, caregiver distress, within group	direction not given	change in mean NPI score	-0.07
Cc1nc(Nc2ccc(CC(=O)O)cc2)nc(Nc2ccc(F)c(C(F)(F)F)c2)c1C	–	mice, chronic ethanol plus binge	intraperitoneal, 0.3 mg/kg daily, ethanol diet 4 weeks, dosed last two	relative to: vehicle	liver to body weight ratio	no effect
C=CC(=O)N[C@H]1C=C(C)c2c(-c3cnc4ccccc4c3)c3c(N)ncnc3n2C1	–	NCI-H2073 EGFR SVD knock-in xenograft, BALB/c nude mice	50 mg/kg once daily, 21 days	–	tumour growth inhibition	45%
CCCCC/C=C\C/C=C\C/C=C\Cc1ccccc1CCCC(=O)N[C@H](C)CO	mechanical hypersensitivity, electronic von Frey	mouse, CFA inflammatory pain	i.p., 5 mg/kg	–	duration of effect	≥ 2 h
Cc1c(C(=O)O)ccc2c3n(nc12)[C@@H]1[C@H](C3)N(CC2CC2)[C@@]2(C(=O)Nc3cc(Cl)ccc32)[C@H]1c1cccc(Cl)c1F	–	mice, orthotopic PDX, MDM2 non-amplified	weekly, 2 mg/kg, for 12 weeks	–	median survival	63 days
CN1CCN(S(=O)(=O)c2cc([N+](=O)[O-])ccc2N(CCOS(C)(=O)=O)CCOS(C)(=O)=O)CC1	–	NSG mice, sample CI PDX	intraperitoneal, 25 mg/kg weekly x3	–	event-free survival	> 365 days
Cc1cccc(C)c1NC(=O)C1CCCCN1 (stereo not shown)	–	Sprague-Dawley rat, male, sciatic nerve	30 mM	–	sensory block duration	67.4 ± 17.4 min
COc1cc2nccc(Oc3ccc(NC(=O)c4cc5c(n(-c6ccccc6)c4=O)CCCC5=O)nc3)c2cc1OC	–	MOLM-13 luc/gfp xenograft, mice	diet, 0.004% in feed	relative to: control over treated	median survival ratio	0.75
N.N.[Cl][Pt][Cl]	–	SAS xenograft, KSN/Slc nude mice	dose not given, day 6, group mean	–	tumour volume	195 mm3
O=C(O)/C=C/C(=O)O.Oc1cccc2[nH]cc(CCNCc3ccccc3)c12	–	C57BL/6J mice	subcutaneous, 0.3 mg/kg	–	head twitch count	7.3 ± 0.5
c1ccc2c(c1)Nc1ccccc1S2	–	CT26 tumour-bearing mice	intraperitoneal, 100 mg/kg equivalents daily, day 1	–	tumour volume	182 mm³
CCCCCN1C[C@H](O)[C@@H](O)[C@H](O)[C@@H]1CO	–	Hexb-/- mice, female	30 mg/kg/day	–	median survival	150 days
CCCCC1(CCCC)CN(c2ccccc2)c2cc(SC)c(OCC(=O)N[C@@H](C(=O)NCC(=O)O)c3ccccc3)cc2S(=O)(=O)C1	measured: LDL cholesterol	human, serum	5 mg once daily, day 13	–	serum LDL-C	97.4 mg/dL
O=C(O)CNC(=O)c1cc2ccccc2n1Cc1ccc(C2CC2)c2ccccc12	–	mouse, acute hyperuricaemia model, serum	oral, 2 mg/kg, individual animal data	–	serum uric acid	378 µM and 408 µM and 521 µM
C[C@H]1O[C@@H](O[C@H]2CC[C@@]3(C)[C@@H](CC[C@]4(C)[C@@H]3C=C[C@]35OC[C@@]6(CCC(C)(C)C[C@H]63)[C@@H](O)C[C@]54C)[C@]2(C)CO)[C@H](O)[C@@H](O[C@@H]2O[C@H](CO)[C@@H](O)[C@H](O)[C@H]2O)[C@H]1O	–	Mus musculus, pair-fed, AAV8-TBG-Null vector, plasma	oral, high dose, 5 h	–	ALT activity	18.8 U/L and 20 U/L and 25.5 U/L and 18.1 U/L and 19.6 U/L and 20.4 U/L
COc1ccc([C@@H](O)c2cc(-c3ncnc4cc(N5CCOCC5)ccc34)c(F)cc2Cl)nn1	–	mouse, orthotopic M12-eGFP tumour	125 mg/kg, 504 h, added: radiotherapy	–	median survival	43 days
c1cncc([C@@H]2CCCN2)c1	drug discrimination acquisition	drug-naive rat	2 mg/kg, pretreatment	relative to: saline	response rate	increased

A few entries again:
SMILES	test	system	setting	scale	endpoint	value
CCCCC/C=C\C/C=C\C/C=C\Cc1ccccc1CCCC(=O)N[C@H](C)CO	mechanical hypersensitivity, electronic von Frey	mouse, CFA inflammatory pain	i.p., 5 mg/kg	–	duration of effect	≥ 2 h
